Published values gathered from unrelated publications.
Lines come from different studies, so protocols differ. Numbers after ± are the reported error.
MET: Hepatocyte growth factor receptor (MET, Homo sapiens, UniProt P08581)
POLB: DNA polymerase beta (POLB, Homo sapiens, UniProt P06746)
T1: ssRNA FMR1 5' UTR CGG repeat (Homo sapiens); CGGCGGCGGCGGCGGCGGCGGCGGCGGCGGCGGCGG

SMILES | tested on | test | system | setting | how to read | measurement | value
CCCC(=O)OC(C)CC(=O)OC(C)CC(=O)SCCNC(=O)CCNC(=O)[C@H](O)C(C)(C)COP(=O)(O)OP(=O)(O)OC[C@H]1O[C@@H](n2cnc3c(N)ncnc32)[C@H](O)[C@@H]1OP(=O)(O)O (stereo partly drawn) | PHB synthase PhaC (Caulobacter vibrioides, UniProt A0A0H3C9D4) | covalent acylation, substrate |  | 500 µM, 10 s, pH 7.5, 30 °C |  | acylation stoichiometry | 0.9 ± 0.07 mol CoA/mol enzyme
COc1cccc(OC)c1OCCCn1cc(CCCNc2nc3c(c(=O)[nH]2)[n+](C)cn3C2OC(COP(=O)(O)OP(=O)([O-])OP(=O)(O)OCC3OC(n4cnc5c(=O)[nH]c(N)nc54)C(O)C3O)C(O)C2O)nn1 (stereo not drawn) | Eukaryotic translation initiation factor 4E (Eif4e, Mus musculus, UniProt P63073) | differential scanning fluorimetry |  |  | baseline: m7GpppG | relative affinity | ~1.7
CCCN(CC(=O)N(CCC)CC(=O)N(CCC)CC(=O)N(CC(N)=O)Cc1cn(CCCNC(=O)CCCOc2cccc(-c3nc4ccc(-c5nc6ccc(N7CCN(C)CC7)cc6[nH]5)cc4[nH]3)c2)nn1)C(=O)CNCc1cn(CCCNC(=O)CCCOc2cccc(-c3nc4ccc(-c5nc6ccc(N7CCN(C)CC7)cc6[nH]5)cc4[nH]3)c2)nn1 | T1, ssRNA FMR1 5' UTR CGG repeat (Homo sapiens) | protein displacement, competitor, TR-FRET |  |  |  | IC50 | 18000 nM
N#Cc1cccc(-c2ccc(=O)n(Cc3cccc(-c4ncc(OCC5CCN(CC(=O)N6CCN(c7ccc8c(c7)C(=O)N(C7CCC(=O)NC7=O)C8=O)CC6)CC5)cn4)c3)n2)c1 (stereo not drawn) | MET | degrader |  |  |  | DC50 | 0.44 ± 0.11 nM
O=c1c2sccc2n(CC2COc3ccccc3O2)c(=O)n1O (stereo not drawn) | Flap endonuclease 1 (Homo sapiens, UniProt P39748) | inhibitor |  | mixed inhibition, with: double-flap substrate DF1 |  | Kiu | 117 ± 27 nM
[64Cu+2].c1ccc(CNCc2ccc(CN3CCCN4CCNCCCN(CC4)CC3)cc2)nc1 | CXCR4 |  | NOD/SCID mouse, U87 and U87-stb-CXCR4 xenografts, blood | iv, 90 min, ex vivo |  | tissue uptake | 1.71 ± 0.17 %ID/g
O=C(Nc1cccc2ncccc12)c1ccc(-c2ccc(Cl)cc2)o1 | Nuclear receptor subfamily 4 group A member 2, ligand binding domain (Homo sapiens, UniProt P43354) | reporter gene, agonist, Gal4-Nurr1 hybrid reporter | HEK-293T | 3 µM, crude library product | baseline: vehicle (0.1% DMSO) | activation | ≤ 1.5 fold
CNc1ccccc1C(=O)O[C@H]1C[C@H](n2cnc3c(N)ncnc32)O[C@@H]1COP(=O)(O)OP(=O)(O)O | Unconventional myosin-Va (Gallus gallus, UniProt Q02440, D297C/G292C/I296C/S293C/V295G) | stopped-flow FRET |  | 10 °C, with: MgCl2 10 mM |  | association rate constant | 2e+06 ± 110000 M⁻¹ s⁻¹
N#Cc1cccc(-c2ccc(=O)n(Cc3cccc(-c4ncc(OCC5CCN(CC(=O)NCCOCCOCCOCCNc6ccc7c(c6)C(=O)N(C6CCC(=O)NC6=O)C7=O)CC5)cn4)c3)n2)c1 (stereo not drawn) | MET | degrader |  |  |  | DC50 | 1.7 ± 0.4 nM
O=Cc1c(O)ccc2ccccc12 | HUVEC | RNA sequencing, measured: PTGS2 |  | 75 µM, 24 h | baseline: DMSO | log2 fold change | 3.55
Nc1nc2c(ncn2[C@H]2C[C@H](O)[C@@H](COP(=O)(O)OP(=O)(O)C(Br)(Br)P(=O)(O)O)O2)c(=O)[nH]1 | POLB | nucleotide incorporation rate, substrate, single-turnover kinetics | single-nucleotide gapped DNA | 37 °C, wild type, misincorporation, with: dGTP opposite template A |  | kpol | 0.0005 ± 0.0001 s⁻¹
CC[C@H](C)[C@H](NC(=O)[C@H](Cc1ccc(O)cc1)NC(=O)[C@@H](NC(=O)[C@H](CCCNC(=N)N)NC(=O)[C@@H](N)CC(=O)O)C(C)C)C(=O)N[C@@H](Cc1c[nH]cn1)C(=O)N1CCC[C@H]1C(=O)O | angiotensin peptidase, sheep CSF | substrate | CSF of control sheep | with: inhibitor cocktail |  | Vmax | 84 nmol/min/mg protein
CC(C)(C)CCN1C[C@@H]2[C@@H](CNC(=O)c3cc(Cl)cc(Cl)c3)[C@@H]2C1.Cl | Voltage-dependent L-type calcium channel subunit alpha-1F (Homo sapiens, UniProt O60840) | calcium current inhibition, whole-cell patch clamp | HEK-293T cells | with: β2 and α2δ subunits |  | Hill slope | 0.46 ± 0.05
CC(P(=O)(O)O)P(=O)(O)OP(=O)(O)OCC1OC(n2cnc3c(=O)[nH]c(N)nc32)CC1O (mixture of isomers) | POLB | nucleotide incorporation, substrate, single turnover kinetics |  | dG misincorporation opposite A |  | kpol/Kd | 5.3 ± 4.4 M⁻¹ s⁻¹
O=C1CC(c2ccccc2)N1S(=O)(=O)c1ccc(Br)cc1 (stereo not drawn) | Rhomboid protease AarA (Providencia stuartii, UniProt P46116) | enzyme activity, inhibitor |  | 100 µM |  | remaining activity | 71 to 86%
COc1ccc(-c2cc(C(F)(F)F)nc(NCc3ccc(Cl)cc3)n2)cc1OC | Secretin receptor (SCTR, Homo sapiens, UniProt P47872) | increase of tracer binding, TR-FRET | HEK293 membranes | with: Fluo-Sec 6 nM |  | Emax | 140 ± 9.7%
COc1cc(CCC(C)=O)ccc1O | mAb 4-AT4 | antibody binding, indirect competitive ELISA |  | with: coating antigen hapten 2-OVA |  | IC50 | > 4 µg/mL
NS(=O)(=O)Nc1ncnc(OCCOc2ncc(Br)cn2)c1-c1ccc(Br)cc1 |  | metabolite formation | male Beagle dog, liver microsomes | 500 mg/kg daily for 4 weeks |  | Vmax | 1010 ± 46 pmol/min/mg
CCCCC/C=C/C(=O)CCc1ccc(O)c(OC)c1 | mAb 4-AT4 | antibody binding, indirect competitive ELISA |  | with: coating antigen hapten 2-OVA |  | IC50 | > 4 µg/mL
S=C(Nc1ccc(Cl)cc1)Nc1cccc2[nH]ccc12 | Microtubule-associated protein tau, 0N4R isoform (MAPT, Homo sapiens, UniProt P10636) | PICUP cross-linking |  | up to 200 µM |  | oligomer formation | no effect
Cc1ccc(NC(=O)CNS(=O)(=O)c2nc(-c3ccc(OC(F)(F)F)cc3)cc(C(F)(F)F)n2)cc1 | Bifunctional 3'-5' exonuclease/ATP-dependent helicase WRN (WRN, Homo sapiens, UniProt Q14191) | enzyme activity, inhibitor |  |  |  | kinact/KI | 14000 M⁻¹ s⁻¹

Excerpt of the above:
SMILES | tested on | test | system | setting | how to read | measurement | value
O=C1CC(c2ccccc2)N1S(=O)(=O)c1ccc(Br)cc1 (stereo not drawn) | Rhomboid protease AarA (Providencia stuartii, UniProt P46116) | enzyme activity, inhibitor |  | 100 µM |  | remaining activity | 71 to 86%
COc1ccc(-c2cc(C(F)(F)F)nc(NCc3ccc(Cl)cc3)n2)cc1OC | Secretin receptor (SCTR, Homo sapiens, UniProt P47872) | increase of tracer binding, TR-FRET | HEK293 membranes | with: Fluo-Sec 6 nM |  | Emax | 140 ± 9.7%
COc1cc(CCC(C)=O)ccc1O | mAb 4-AT4 | antibody binding, indirect competitive ELISA |  | with: coating antigen hapten 2-OVA |  | IC50 | > 4 µg/mL
